Experimental data from different studies.
Numbered parts are unrelated; each lists some results of a single study. Values joined by “and” are separate records of one study, mostly repeats; a detail may differ.
Chain of UniProt P49761 (whole entry, looked up): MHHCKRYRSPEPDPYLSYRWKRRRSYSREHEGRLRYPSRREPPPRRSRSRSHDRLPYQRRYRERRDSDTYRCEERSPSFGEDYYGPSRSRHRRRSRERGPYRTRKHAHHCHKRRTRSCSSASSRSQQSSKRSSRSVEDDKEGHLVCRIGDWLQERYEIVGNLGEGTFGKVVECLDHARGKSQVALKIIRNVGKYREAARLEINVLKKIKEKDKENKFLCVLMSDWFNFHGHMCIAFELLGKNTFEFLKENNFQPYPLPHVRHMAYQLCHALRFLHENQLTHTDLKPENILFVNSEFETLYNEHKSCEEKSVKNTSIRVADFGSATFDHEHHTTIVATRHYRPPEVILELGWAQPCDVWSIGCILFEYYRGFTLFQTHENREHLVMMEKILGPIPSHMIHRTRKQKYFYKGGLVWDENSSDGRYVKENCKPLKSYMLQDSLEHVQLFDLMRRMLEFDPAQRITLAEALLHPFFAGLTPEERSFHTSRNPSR
Chain of UniProt Q9P1W9 (whole entry, looked up): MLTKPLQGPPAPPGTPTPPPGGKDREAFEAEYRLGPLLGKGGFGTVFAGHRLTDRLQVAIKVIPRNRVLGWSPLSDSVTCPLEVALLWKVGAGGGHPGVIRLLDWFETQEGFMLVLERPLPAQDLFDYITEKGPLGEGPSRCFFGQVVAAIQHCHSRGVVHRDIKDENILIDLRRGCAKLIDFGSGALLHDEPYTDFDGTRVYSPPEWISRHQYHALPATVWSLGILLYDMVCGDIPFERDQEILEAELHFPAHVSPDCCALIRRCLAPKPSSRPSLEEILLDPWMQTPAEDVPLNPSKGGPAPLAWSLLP

Study 1
Target: DNA polymerase theta, ATPase domain (POLQ, Homo sapiens, UniProt O75417)
Chain of UniProt O75417 (whole entry, unmodified, looked up): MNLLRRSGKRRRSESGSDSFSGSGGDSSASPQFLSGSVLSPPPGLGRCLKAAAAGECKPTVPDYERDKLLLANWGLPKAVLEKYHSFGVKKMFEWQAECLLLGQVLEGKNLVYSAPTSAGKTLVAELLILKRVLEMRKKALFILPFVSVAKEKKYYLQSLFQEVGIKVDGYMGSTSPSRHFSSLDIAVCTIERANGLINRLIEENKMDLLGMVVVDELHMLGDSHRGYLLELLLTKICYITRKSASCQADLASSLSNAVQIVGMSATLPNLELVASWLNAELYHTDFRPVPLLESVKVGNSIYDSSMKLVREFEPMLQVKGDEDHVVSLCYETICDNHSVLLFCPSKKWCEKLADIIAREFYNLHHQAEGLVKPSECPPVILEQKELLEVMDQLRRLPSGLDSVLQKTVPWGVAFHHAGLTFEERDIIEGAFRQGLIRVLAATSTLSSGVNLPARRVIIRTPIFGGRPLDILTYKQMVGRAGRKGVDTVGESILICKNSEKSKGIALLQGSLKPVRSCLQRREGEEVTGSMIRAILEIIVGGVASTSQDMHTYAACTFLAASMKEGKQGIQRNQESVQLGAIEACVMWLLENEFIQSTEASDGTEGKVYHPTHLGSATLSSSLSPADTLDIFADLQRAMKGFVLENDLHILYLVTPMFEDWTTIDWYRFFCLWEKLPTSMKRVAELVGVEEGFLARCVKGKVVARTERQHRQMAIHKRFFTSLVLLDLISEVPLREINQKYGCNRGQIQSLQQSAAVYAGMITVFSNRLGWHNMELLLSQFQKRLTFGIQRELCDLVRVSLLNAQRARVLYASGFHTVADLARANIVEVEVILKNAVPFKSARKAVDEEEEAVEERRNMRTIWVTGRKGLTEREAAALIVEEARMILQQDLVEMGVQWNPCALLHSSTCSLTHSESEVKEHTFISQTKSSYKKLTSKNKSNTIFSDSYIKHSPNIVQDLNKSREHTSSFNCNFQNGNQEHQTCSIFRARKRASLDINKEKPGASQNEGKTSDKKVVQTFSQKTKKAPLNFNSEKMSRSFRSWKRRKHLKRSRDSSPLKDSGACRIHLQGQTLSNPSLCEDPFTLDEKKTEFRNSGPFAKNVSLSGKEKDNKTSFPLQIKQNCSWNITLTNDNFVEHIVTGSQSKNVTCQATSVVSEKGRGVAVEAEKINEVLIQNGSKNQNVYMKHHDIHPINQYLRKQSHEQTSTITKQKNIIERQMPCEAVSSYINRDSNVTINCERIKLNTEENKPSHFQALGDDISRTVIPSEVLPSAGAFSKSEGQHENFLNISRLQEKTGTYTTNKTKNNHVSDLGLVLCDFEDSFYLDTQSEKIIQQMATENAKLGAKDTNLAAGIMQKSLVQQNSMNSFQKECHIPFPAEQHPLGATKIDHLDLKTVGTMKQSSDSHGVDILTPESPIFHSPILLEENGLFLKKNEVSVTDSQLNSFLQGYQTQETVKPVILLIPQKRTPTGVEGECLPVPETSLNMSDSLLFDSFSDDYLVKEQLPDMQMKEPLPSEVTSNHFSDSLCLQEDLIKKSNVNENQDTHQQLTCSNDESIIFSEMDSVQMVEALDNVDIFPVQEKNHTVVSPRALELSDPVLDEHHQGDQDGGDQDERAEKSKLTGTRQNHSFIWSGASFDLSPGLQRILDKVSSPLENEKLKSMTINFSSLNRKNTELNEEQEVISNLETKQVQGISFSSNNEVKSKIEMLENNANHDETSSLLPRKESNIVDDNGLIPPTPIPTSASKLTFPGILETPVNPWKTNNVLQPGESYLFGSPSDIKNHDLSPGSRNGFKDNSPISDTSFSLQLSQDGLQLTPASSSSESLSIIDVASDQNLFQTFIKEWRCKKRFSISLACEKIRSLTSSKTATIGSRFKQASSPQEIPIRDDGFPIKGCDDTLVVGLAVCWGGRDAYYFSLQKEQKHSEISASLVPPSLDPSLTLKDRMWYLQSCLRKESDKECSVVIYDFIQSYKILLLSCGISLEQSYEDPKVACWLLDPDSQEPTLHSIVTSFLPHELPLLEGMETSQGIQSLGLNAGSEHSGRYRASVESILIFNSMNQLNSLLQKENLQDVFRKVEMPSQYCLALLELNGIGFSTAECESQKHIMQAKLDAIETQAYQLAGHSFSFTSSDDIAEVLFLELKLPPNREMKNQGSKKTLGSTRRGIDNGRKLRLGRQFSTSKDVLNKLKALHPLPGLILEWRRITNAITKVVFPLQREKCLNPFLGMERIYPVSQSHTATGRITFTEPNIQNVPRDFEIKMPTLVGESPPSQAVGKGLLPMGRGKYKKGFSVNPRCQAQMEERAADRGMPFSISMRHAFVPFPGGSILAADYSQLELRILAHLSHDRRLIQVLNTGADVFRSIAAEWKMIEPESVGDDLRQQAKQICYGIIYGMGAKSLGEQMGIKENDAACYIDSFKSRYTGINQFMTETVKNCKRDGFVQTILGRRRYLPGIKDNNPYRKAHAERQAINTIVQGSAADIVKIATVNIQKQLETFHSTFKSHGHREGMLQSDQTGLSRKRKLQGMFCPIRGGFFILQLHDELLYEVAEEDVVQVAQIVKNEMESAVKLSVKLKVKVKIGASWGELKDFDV
Observed: enzyme activity
Mode: inhibitor
Concentration: 77 µM
Relative to: untreated
The remaining activity of `Cc1ccc(Sc2ccccc2N2CCNCC2)c(C)c1` is reported as 106%.
`C[C@]12CC[C@@H]3c4ccc(OS(=O)(=O)O)cc4CC[C@H]3[C@@H]1CCC2=O` gave a remaining activity of 104%.
The remaining activity of `O=C(O)C(Cc1ccccc1[N+](=O)[O-])=NNc1nc(-c2ccc(Cl)c(Cl)c2)cs1` (mixture of isomers) is reported as 81.9%.
The remaining activity of `CCOC(=O)[C@H](CCc1ccccc1)N[C@@H](C)C(=O)N1CCC[C@H]1C(=O)O` is reported as 77% and 93.7%.
With `CN(C)CC(=O)Nc1ccc2[nH]c(=O)c3ccccc3c2c1` the remaining activity was 102%.

Study 2
Target: Beta-1 adrenergic receptor (ADRB1, Homo sapiens, UniProt P08588)
Chain of UniProt P08588 (whole entry, looked up): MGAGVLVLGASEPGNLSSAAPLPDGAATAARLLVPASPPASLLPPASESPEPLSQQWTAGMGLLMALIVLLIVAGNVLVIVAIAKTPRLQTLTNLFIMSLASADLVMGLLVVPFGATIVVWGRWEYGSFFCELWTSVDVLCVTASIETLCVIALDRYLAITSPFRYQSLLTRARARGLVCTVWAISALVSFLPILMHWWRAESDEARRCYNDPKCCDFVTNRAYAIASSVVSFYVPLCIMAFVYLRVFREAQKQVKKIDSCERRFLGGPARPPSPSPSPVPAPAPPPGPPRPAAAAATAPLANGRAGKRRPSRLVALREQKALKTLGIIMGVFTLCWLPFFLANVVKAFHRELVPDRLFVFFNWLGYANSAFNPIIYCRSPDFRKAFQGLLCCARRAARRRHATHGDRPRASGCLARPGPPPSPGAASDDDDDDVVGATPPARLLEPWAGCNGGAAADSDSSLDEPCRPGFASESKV
Mode: antagonist
`Cc1noc2c(-c3cn[nH]c3)cc(-c3ccccc3)nc12` has an IC50 of at least 100 µM.
`CCCCCCCCN[C@H](C)[C@@H](O)c1ccc(SC(C)C)cc1` has an IC50 of 35.5 µM.
With `CN(C)c1ccc(CNC2(Cc3cc(-c4cccc(O)c4)on3)COC2)cc1` the IC50 was at least 100 µM.
For `O=C(NCC1CCN(CCc2ccccc2)C1)c1ccc2[nH]cnc2c1` (stereo not drawn), the IC50 was at least 100 µM.
`CN(C)c1ccc2nc3ccc(=[N+](C)C)cc-3sc2c1` has an IC50 of 11.2 µM.

Study 3
Compound: O=C(Nc1cnn(-c2csc(C(=O)NC3COC3)c2)c1)Nc1c(F)cccc1Cl
Observed: enzyme activity
Concentration: 5 µM
For Testis-specific serine/threonine-protein kinase 3 (TSSK3, Homo sapiens, UniProt Q96PN8); relative to: untreated control: remaining activity read 96.7%.
The remaining activity was 75% (Serine/threonine-protein kinase ULK3 (ULK3, Homo sapiens, UniProt Q6PHR2); relative to: untreated control).
cAMP-dependent protein kinase catalytic subunit gamma (PRKACG, Homo sapiens, UniProt P22612); inhibitor — remaining activity: 97.6%.
The remaining activity was 62.4% (Serine/threonine-protein kinase PAK 3 (PAK3, Homo sapiens, UniProt O75914); relative to: untreated control).

Study 4
SMILES: Cc1cc(NC(=O)c2cccc(S(F)(F)(F)(F)F)c2)cc(-n2ccn3nc(-c4cccnc4)cc23)c1
Observed: cell-free assay
Technique: competition with immobilised ligand
Concentration: 1 µM
The remaining binding was 100% (Serine/threonine-protein kinase Nek1 (NEK1, Homo sapiens, UniProt Q96PY6)).
For Tyrosine-protein kinase JAK1, JH1 (JAK1, Homo sapiens, UniProt P23458): remaining binding read 100%.
The remaining binding was 100% (Myosin-IIIa (MYO3A, Homo sapiens, UniProt Q8NEV4)).
For Ribosomal protein S6 kinase alpha-1, C-terminal kinase domain (RPS6KA1, Homo sapiens, UniProt Q15418): remaining binding read 100%.
It gave 100% for remaining binding (Serine/threonine-protein kinase pim-2 (PIM2, Homo sapiens, UniProt Q9P1W9)).
Serine/threonine-protein kinase 26 (STK26, Homo sapiens, UniProt Q9P289) — remaining binding: 100%.
Dual specificity protein kinase CLK3 (CLK3, Homo sapiens, UniProt P49761) — remaining binding: 100%.
Tyrosine-protein kinase ABL1, non-phosphorylated (ABL1, Homo sapiens, UniProt P00519, Q252H) — remaining binding: 49.2%.
The remaining binding was 60.8% (Tyrosine-protein kinase ABL1, phosphorylated (ABL1, Homo sapiens, UniProt P00519, T315I)).
It gave 91.8% for remaining binding (Serine/threonine-protein kinase PAK 4 (PAK4, Homo sapiens, UniProt O96013)).
It gave 62.1% for remaining binding (Dual specificity mitogen-activated protein kinase kinase 3 (MAP2K3, Homo sapiens, UniProt P46734)).
For Mitogen-activated protein kinase kinase kinase 13 (MAP3K13, Homo sapiens, UniProt O43283): remaining binding read 100%.
Mitogen-activated protein kinase kinase kinase 9 (MAP3K9, Homo sapiens, UniProt P80192) — remaining binding: 77.7%.
Mitogen-activated protein kinase kinase kinase kinase 4 (MAP4K4, Homo sapiens, UniProt O95819) — remaining binding: 100%.
The remaining binding was 100% (Phosphatidylinositol 4,5-bisphosphate 3-kinase catalytic subunit gamma isoform (PIK3CG, Homo sapiens, UniProt P48736)).
The remaining binding was 100% (Epidermal growth factor receptor (EGFR, Homo sapiens, UniProt P00533)).
Serine/threonine-protein kinase mTOR (MTOR, Homo sapiens, UniProt P42345) — remaining binding: 99.2%.
It gave 100% for remaining binding (Fibroblast growth factor receptor 3 (FGFR3, Homo sapiens, UniProt P22607, G697C)).

Study 5
Organism: Sarcocystis neurona
Observed: parasite growth
Concentration: 10 µM
Time: 96 h
The inhibition of `CCOC(=O)[C@H](CCc1ccccc1)N[C@@H](C)C(=O)N1CCC[C@H]1C(=O)O` is reported as -7.5%.
For `CCn1cc(C(=O)O)c(=O)c2cc(F)c(N3CCNCC3)cc21`, the inhibition was -12.6%.
For `CC(C)NCC(O)c1ccc(NS(C)(=O)=O)cc1` (stereo not drawn), the inhibition was -4.6%.
For `Cc1nnc(SCC2=C(C(=O)O)N3C(=O)[C@@H](NC(=O)Cn4cnnn4)[C@H]3SC2)s1`, the inhibition was -17.6%.

Some of these lines once more (study 1):
`C[C@]12CC[C@@H]3c4ccc(OS(=O)(=O)O)cc4CC[C@H]3[C@@H]1CCC2=O` gave a remaining activity of 104%.
The remaining activity of `O=C(O)C(Cc1ccccc1[N+](=O)[O-])=NNc1nc(-c2ccc(Cl)c(Cl)c2)cs1` (mixture of isomers) is reported as 81.9%.
